Results of several laboratories.
A part holds a random share of what one study measured.

Block 1
Target: Sal-like protein 4, full length isoform B (SALL4, Homo sapiens, UniProt Q9UJQ4-2, residues 1-616)
Technique: universal PBM
Molecule type: double-stranded DNA, one strand shown
Matrix: in vitro
Concentration: not given
Notes: 8-mer, flanks averaged, mean of replicates
Reading: higher = stronger binding
`ACCAGACG` gave an E-score of -0.101.
`AGTATGAC` has an E-score of 0.215.
With `AAGGTATA` the E-score was 0.285.
For `ACCGTAGC`, the E-score was -0.241.
For `ACTTTCTG`, the E-score was 0.0358.
The E-score of `GATTTGTA` is reported as 0.161.
The E-score of `GAGTTGTA` is reported as 0.139.
The E-score of `ATCTATGG` is reported as -0.133.
The E-score of `TCGGCAGA` is reported as -0.188.
`ATTCTGTG` has an E-score of 0.126.
With `GGGGGCTA` the E-score was -0.248.
`AACCTTCA` has an E-score of 0.142.
`ATCGTATG` gave an E-score of 0.213.
For `ACCTATAT`, the E-score was 0.305.
With `CTGCGGTC` the E-score was -0.313.
The E-score of `AAGGTGCC` is reported as -0.103.
For `CGTCACGC`, the E-score was -0.132.
The E-score of `AAAGCTAG` is reported as 0.0322.
For `GATCAGAC`, the E-score was -0.0478.
For `CGACCCCC`, the E-score was -0.301.
With `AGAAGACA` the E-score was 0.0551.
For `ACAAAGTA`, the E-score was 0.222.
For `TCTGATCA`, the E-score was 0.00572.
The E-score of `AAATTATC` is reported as 0.401.
With `ACCATAGG` the E-score was -0.0456.

Block 2
Target: Prothrombin, mature alpha-thrombin (F2, Homo sapiens, UniProt P00734)
Technique: aptamer microarray, sandwich
Molecule type: DNA with 2'F-ANA
Matrix: in vitro
Concentration: 200 nM
Notes: whole 15-mer aptamer, many near background
Together with: Cy3 exosite-II aptamer, 400 nM
Reading: higher = stronger binding
Oligonucleotide: GGTTGGTGTGGTTGG
`2'F-ANA at 1 2 3 6 10 12 13` — result for “mean fluorescence intensity”: 85.5 a.u.
For `2'F-ANA at 2 3 9 11 12 14 15`, “mean fluorescence intensity” read 432 a.u.
`2'F-ANA at 1 2 3 5 7 8 10 11 12 14 15`: “mean fluorescence intensity” 50.3 a.u.
`2'F-ANA at 2 3 4 6 7 8 10 11` — result for “mean fluorescence intensity”: 257 a.u.
`2'F-ANA at 2 3 5 7 8 9 10 12 13 14 15` — result for “mean fluorescence intensity”: 48.7 a.u.
For `2'F-ANA at 1 2 6 8 9 10 12 14 15`, “mean fluorescence intensity” read 51.4 a.u.
`2'F-ANA at 2 3 4 5 7 10 14` — result for “mean fluorescence intensity”: 47.9 a.u.
Under “mean fluorescence intensity”, `2'F-ANA at 1 4 6 12` is recorded as 268 a.u.
For `2'F-ANA at 1 2 5 11`, “mean fluorescence intensity” read 55.9 a.u.
For `2'F-ANA at 4 5 6 9 10 12 14`, “mean fluorescence intensity” read 44.9 a.u.
For `2'F-ANA at 1 5 6 8 10 11 12 15`, “mean fluorescence intensity” read 50 a.u.
`2'F-ANA at 1 2 3 5 6 7 8 9 10 12 13` — result for “mean fluorescence intensity”: 49.6 a.u.
Under “mean fluorescence intensity”, `2'F-ANA at 1 6 9 11 13` is recorded as 107 a.u.
`2'F-ANA at 1 4 5 10 11 12 13 14`: “mean fluorescence intensity” 79.5 a.u.
For `2'F-ANA at 1 3 4 10 11 13 14`, “mean fluorescence intensity” read 51.8 a.u.
For `2'F-ANA at 2 4 9 11 14`, “mean fluorescence intensity” read 89.4 a.u.
For `2'F-ANA at 7 10 13 14`, “mean fluorescence intensity” read 129 a.u.
`2'F-ANA at 1 2 4 5 8 9 11 12 13 14 15`: “mean fluorescence intensity” 197 a.u.
For `2'F-ANA at 1 2 3 7 8 11 12 14 15`, “mean fluorescence intensity” read 126 a.u.
Under “mean fluorescence intensity”, `2'F-ANA at 4 6 8 10 12 15` is recorded as 98.6 a.u.

Block 3
Target: Histone acetyltransferase KAT6A, winged helix 2, GST fusion (KAT6A, Homo sapiens, UniProt Q92794, residues 85-181)
Technique: protein binding microarray
Molecule type: double-stranded DNA, one strand shown
Matrix: in vitro
Concentration: not given
Notes: 8-mer, flanks averaged, mean of 2 arrays, mostly near background
Baseline: not given
Reading: higher = stronger binding
Residues (chain): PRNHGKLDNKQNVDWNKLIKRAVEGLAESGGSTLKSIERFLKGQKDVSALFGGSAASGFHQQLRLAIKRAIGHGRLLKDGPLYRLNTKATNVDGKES
For `ATCGACAA`, the E-score was -0.0763.
`ATAAAGGG` gave an E-score of -0.0168.
`ACAACTGC` has an E-score of 0.0637.
`TACCAGGA` gave an E-score of 0.169.
`AGTAGGAC` gave an E-score of -0.0265.
`CGGACGGA` has an E-score of 0.0421.
For `GCCAACGA`, the E-score was -0.0791.
For `GCTGGCTA`, the E-score was -0.23.
`GAGGCAGA` has an E-score of 0.0456.
`AGAATGGG` has an E-score of -0.0444.
For `ATGACTCA`, the E-score was -0.0966.
`CTCCTGTC` has an E-score of 0.117.
With `CGCAATCC` the E-score was 0.153.
With `AACGTGGA` the E-score was -0.124.
With `AACAAAAC` the E-score was 0.0352.

Block 4
Target: Hepatocyte nuclear factor 3-alpha (Foxa1, Mus musculus, UniProt P35582, residues 1-468, full length assumed)
UniProt P35582, sequence (whole entry, looked up): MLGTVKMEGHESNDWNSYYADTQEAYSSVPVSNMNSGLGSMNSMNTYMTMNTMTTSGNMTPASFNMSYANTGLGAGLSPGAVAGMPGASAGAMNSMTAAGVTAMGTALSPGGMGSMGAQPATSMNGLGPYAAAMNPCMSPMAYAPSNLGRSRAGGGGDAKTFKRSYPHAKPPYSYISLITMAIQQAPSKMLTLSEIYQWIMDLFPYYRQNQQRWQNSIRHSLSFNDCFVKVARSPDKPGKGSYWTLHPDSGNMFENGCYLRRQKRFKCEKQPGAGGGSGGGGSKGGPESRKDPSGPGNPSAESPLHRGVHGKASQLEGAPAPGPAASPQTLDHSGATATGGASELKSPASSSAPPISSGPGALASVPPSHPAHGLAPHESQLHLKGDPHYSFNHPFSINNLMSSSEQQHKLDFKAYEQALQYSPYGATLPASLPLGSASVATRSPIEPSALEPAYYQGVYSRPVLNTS
Technique: EMSA with sequencing
Molecule type: double-stranded DNA, one strand shown
Matrix: in vitro
Concentration: 10 and 20 nM
Notes: whole designed probe, mean of two concentrations, ends assumed
Baseline: negative control set to 0
Reading: higher = stronger binding
`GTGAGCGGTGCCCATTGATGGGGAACCTAATCTCTCTTGGCATCAGGACTTGGTCTTTTGCTGTAGGAGCCACACCAATGGATACCACTCAACCAAAGTGACCCTGGGACAGAGCCAGTATAAACACGGTCCCTCGTGAGTCAAGCGTCTGGGATAAGTGAACAAACACTGGGCTGAAAACCTGGGACTGGCTGGTTGTTTAAGAGCTATCACCTGCTCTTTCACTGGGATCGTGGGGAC`: “normalised bound fraction” 0.164 ratio.
`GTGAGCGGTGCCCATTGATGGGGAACTGATGATACGTTATAGCATTTCTCTGCTCTGTAAGAGAGGCACCAGGGTCGTGTGCTGGCACATCCGGTGTCTGGGGTTTGTCCATTCGCTGCTGTTGACTCTGGTGTCGGCCGCTGGTGAGCTGGCTGTAGCTGGTCACCTCTGGGTGGTTTCTGGGGCGGTCGCAGGCTGACTAACACACCAAAGGTCAGCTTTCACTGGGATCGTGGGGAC` — result for “normalised bound fraction”: 0.0105 ratio.
`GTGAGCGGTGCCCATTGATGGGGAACAAGAGCCCGGCGGTAGGGCCATATGTTCCCCATAATCTCCAAAGCCGTCACTTCAATTAGAGCCTCCCCTGAGTTCTAATGCCCAATCCTGAGTAAACAAGCCGCTCTGAAAGAAGAACTCGGTTTCCAATTAAAAGTGTACTAACATTTCTCCTTCCTTTAATTCCCGCGGAGCAAAGCCCCGCGCGGGCGGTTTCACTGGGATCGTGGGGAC` — result for “normalised bound fraction”: 0.338 ratio.
For `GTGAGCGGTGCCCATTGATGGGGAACCCACATCACACTGTTGCCACAAGCAGGATACAGTCATCACACAAACAGAGGATTATTACTTCTCAGCCACTCTTCTGCTATCTTCTTACTGAGTAATCTTCGAGAACTCAGTCCTTTGTGATGTACTAATATGAAACAGGAAAGGGAAAGCCCTAGGTGGCCATGATATAGTTAGTGCCTACGTTTCCAAGAATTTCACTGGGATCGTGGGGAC`, “normalised bound fraction” read -0.0366 ratio.
Under “normalised bound fraction”, `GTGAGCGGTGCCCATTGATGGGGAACATCTTCCCCCTCTTCCTTGCCCCACCAGCTCACCTTCCCGGGTATCTGCAAATAAGTATTTATTTTCAAGCCGGCATTCGTTAACCCTCTTCTGGCGCAAACTGCTGTTTGCTCTGGATCTAACATGGTCCTTTGGCGACGCCAGGCTCCGGGAGAGCAAAGCACCGTGTCAGGGCCATGATCCGGGGTGGCCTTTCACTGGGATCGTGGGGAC` is recorded as 0.204 ratio.
Under “normalised bound fraction”, `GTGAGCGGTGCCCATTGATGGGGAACCCAGTGGTAAACTGCACGACCATCTGACCTCCCTGAAGTTGCAGCCAAATACAGCACTGAGAATGTATGTGTCCTTTGTGAATATTGCACTTCTTGTTTACTTTGAAGAAGTCCTTTTCCCTGACACTCTAGAAATAAGGAGAAGCCTAGCCCTGGAGAAGAGCTTTACTGATGCCCACTACCACAGAACTGCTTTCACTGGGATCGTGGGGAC` is recorded as 0.408 ratio.
Under “normalised bound fraction”, `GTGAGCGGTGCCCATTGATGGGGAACTGGAATTTTATGTTTTCCTGTTATCGCTTTATGTGGAATGCAGAATATAAAAGAAAAATTGAATTAATTGTAAATTAGTAGGATTAAATGCATGTTTACATAGATATTATTGTGGCTGAAATTATAACATGTTAATTTTCCTTTGTGGATATTAAAGTGATTCCCTTCTGAATGACAATATTTTAGGTGGAAATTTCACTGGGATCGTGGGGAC` is recorded as 0.296 ratio.
`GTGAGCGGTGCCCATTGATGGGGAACAACCCAGACAGTGACATCTTACAGGGGACTTCTTCTTCTTCCCCCATTGTATGTCTCCTCCTTTTATGTTTATCTAATCTATTCACATAACTATGTAAACAAGTACATTTACTAAAGTTTCTTCATGTTCATAAAATAATAACATACAGAATTATAAAAGTAGAAAGGTAAGGCCAAGCATGGGGGCTCACGCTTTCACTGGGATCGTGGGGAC` — result for “normalised bound fraction”: 0.487 ratio.

Excerpt of the above (block 2):
`2'F-ANA at 2 3 5 7 8 9 10 12 13 14 15` — result for “mean fluorescence intensity”: 48.7 a.u.
Under “mean fluorescence intensity”, `2'F-ANA at 1 6 9 11 13` is recorded as 107 a.u.
Under “mean fluorescence intensity”, `2'F-ANA at 4 6 8 10 12 15` is recorded as 98.6 a.u.
For `2'F-ANA at 2 3 9 11 12 14 15`, “mean fluorescence intensity” read 432 a.u.
`2'F-ANA at 1 2 4 5 8 9 11 12 13 14 15`: “mean fluorescence intensity” 197 a.u.
For `2'F-ANA at 1 2 6 8 9 10 12 14 15`, “mean fluorescence intensity” read 51.4 a.u.
`2'F-ANA at 1 2 3 5 7 8 10 11 12 14 15`: “mean fluorescence intensity” 50.3 a.u.
For `2'F-ANA at 4 5 6 9 10 12 14`, “mean fluorescence intensity” read 44.9 a.u.
`2'F-ANA at 1 2 3 5 6 7 8 9 10 12 13` — result for “mean fluorescence intensity”: 49.6 a.u.
